Experimental data gathered from unrelated publications.
Every numbered part comes from another study and shows a few of its results, in no order. Several values in a cell are separate wells, animals, samples, runs or records.
Sequence of UniProt P35367 (whole entry, looked up): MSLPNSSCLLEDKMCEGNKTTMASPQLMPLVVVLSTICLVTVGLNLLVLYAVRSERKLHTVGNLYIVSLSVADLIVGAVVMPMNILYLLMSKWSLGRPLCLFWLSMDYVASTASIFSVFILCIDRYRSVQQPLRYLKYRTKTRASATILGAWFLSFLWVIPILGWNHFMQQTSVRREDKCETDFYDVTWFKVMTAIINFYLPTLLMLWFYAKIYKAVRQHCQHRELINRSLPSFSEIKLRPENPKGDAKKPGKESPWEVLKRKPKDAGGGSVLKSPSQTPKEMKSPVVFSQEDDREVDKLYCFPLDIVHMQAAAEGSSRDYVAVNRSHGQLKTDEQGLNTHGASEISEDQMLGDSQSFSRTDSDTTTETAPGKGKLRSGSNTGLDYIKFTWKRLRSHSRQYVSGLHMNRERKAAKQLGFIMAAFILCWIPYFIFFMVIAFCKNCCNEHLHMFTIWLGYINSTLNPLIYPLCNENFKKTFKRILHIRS
Sequence of UniProt P47898 (whole entry, looked up): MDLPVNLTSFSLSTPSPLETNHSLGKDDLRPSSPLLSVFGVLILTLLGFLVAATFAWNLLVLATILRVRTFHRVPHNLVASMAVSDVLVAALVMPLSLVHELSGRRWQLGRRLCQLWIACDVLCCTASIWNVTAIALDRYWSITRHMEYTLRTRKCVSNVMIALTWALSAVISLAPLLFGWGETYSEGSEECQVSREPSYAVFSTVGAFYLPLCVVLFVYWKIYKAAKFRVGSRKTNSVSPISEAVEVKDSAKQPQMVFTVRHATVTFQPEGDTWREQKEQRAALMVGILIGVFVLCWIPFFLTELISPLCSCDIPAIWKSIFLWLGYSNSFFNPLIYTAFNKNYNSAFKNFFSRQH

Series 1
Cell line: mouse MPNST tumor cells
Method: high-content immunofluorescence imaging
Measured: nuclear SOX9
Tested at: 10 µM
Time: 12 h
Setting: mean of 2 replicates
Baseline: DMSO control
Direction: higher = more nuclear SOX9
Quantity: nuclear SOX9 intensity
CN(CCCCCCCCCCN(C)C(=O)Oc1cccc([N+](C)(C)C)c1)C(=O)Oc1cccc([N+](C)(C)C)c1: 92.5 % of DMSO
COc1cc(OC)c(C(=O)CCCN2CCCC2)c(OC)c1: 102 % of DMSO
Cc1cc(C)cc(C(=O)NOCCCCCC(=O)NO)c1: 127 % of DMSO
Cc1nccc(-c2cn(Cc3ccccc3)c3cnccc23)n1: 137 % of DMSO
COc1ccc2c3c1O[C@H]1C[C@@H](O)C=C[C@@]31CCN(C)C2: 92.8 % of DMSO and 107 % of DMSO
Cc1nnc(C(=O)NC(C)(C)c2nc(C(=O)NCc3ccc(F)cc3)c(O)c(=O)n2C)o1: 88.3 % of DMSO
O=S(=O)(O)c1cc(O)ccc1O: 88.5 % of DMSO
O=C(Nc1ccccc1)c1cc([N+](=O)[O-])ccc1Cl: 100 % of DMSO
COc1cccc(OC)c1-c1cc(C(=O)NC(CC(C)C)C(=O)O)nn1-c1ccnc2cc(Cl)ccc12 (centres unmarked): 101 % of DMSO
CCN1CCCC1CNC(=O)c1cc(S(N)(=O)=O)ccc1OC (racemic): 96.3 % of DMSO
CC(=O)OCC(=O)[C@@]1(OC(C)=O)[C@@H](C)C[C@H]2[C@@H]3C[C@H](F)C4=CC(=O)C=C[C@]4(C)[C@@]3(F)[C@@H](O)C[C@@]21C: 86.7 % of DMSO
CCN[C@H]1CN(CCCOC)S(=O)(=O)c2sc(S(N)(=O)=O)cc21: 99.5 % of DMSO
CN1CCC(=C2c3ccccc3Sc3ccccc32)CC1: 146 % of DMSO
CCn1c(-c2nonc2N)nc2cncc(C(=O)N3CC[C@H](N)C3)c21: 156 % of DMSO
COc1ccccc1OCC(O)CN1CCN(CC(=O)Nc2c(C)cccc2C)CC1 (centres unmarked): 95.4 % of DMSO and 107 % of DMSO and 96.6 % of DMSO
CC(C)(O/N=C(\C(=O)N[C@@H]1C(=O)N2C(C(=O)[O-])=C(C[n+]3ccccc3)CS[C@H]12)c1csc(N)n1)C(=O)O: 110 % of DMSO
C/C(=C\C(=O)OCCCCCCCCC(=O)O)C[C@@H]1OC[C@H](C[C@@H]2O[C@H]2[C@@H](C)[C@H](C)O)[C@@H](O)[C@H]1O: 109 % of DMSO

Series 2
Target: Protein kinase C beta type, isoform beta-II (PRKCB, Homo sapiens, UniProt P05771)
Sequence of UniProt P05771 (whole entry, looked up): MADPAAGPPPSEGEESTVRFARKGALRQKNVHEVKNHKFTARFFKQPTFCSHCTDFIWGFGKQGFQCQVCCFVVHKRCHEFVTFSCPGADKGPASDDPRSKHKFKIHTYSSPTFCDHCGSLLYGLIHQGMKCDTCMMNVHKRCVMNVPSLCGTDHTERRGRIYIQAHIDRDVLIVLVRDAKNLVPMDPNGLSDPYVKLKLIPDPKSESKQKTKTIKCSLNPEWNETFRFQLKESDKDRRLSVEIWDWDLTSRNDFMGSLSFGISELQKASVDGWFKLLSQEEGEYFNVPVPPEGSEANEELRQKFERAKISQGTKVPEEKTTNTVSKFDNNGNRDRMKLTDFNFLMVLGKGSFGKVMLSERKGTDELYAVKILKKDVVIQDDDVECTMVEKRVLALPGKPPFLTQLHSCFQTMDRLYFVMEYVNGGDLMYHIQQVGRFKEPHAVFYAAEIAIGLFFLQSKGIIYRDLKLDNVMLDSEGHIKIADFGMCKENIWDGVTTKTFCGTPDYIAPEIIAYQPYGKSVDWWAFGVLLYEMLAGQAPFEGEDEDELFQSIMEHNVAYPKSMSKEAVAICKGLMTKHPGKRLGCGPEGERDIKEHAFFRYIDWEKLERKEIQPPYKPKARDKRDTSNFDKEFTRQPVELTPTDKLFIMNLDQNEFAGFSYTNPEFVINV
Read-out: enzyme activity
Action: inhibitor
Tested at: 0.5 µM
Baseline: control
Quantity: remaining activity
CCCC(=O)Oc1ccc2[nH]c(C(=O)c3cc4ccccc4[nH]3)cc2c1: 102%
Fc1ccc(-c2nc3n(c2-c2ccncc2)CCS3)cc1: 87.2%
Cc1ccc(NC2=CC(=O)c3sc(C)nc3C2=O)cc1: 93.8%
CC#CC(=O)Nc1cc2c(Nc3ccc(F)c(Cl)c3)ncnc2cn1: 99.5%
NC(=O)c1ccc(N(C(N)=O)c2c(F)cccc2F)nc1-c1ccc(F)cc1F: 94.6%
Nc1ncnc2c1cnn2-c1ccccc1: 96.5%
O=C1Cc2c([nH]c3ccc([N+](=O)[O-])cc23)-c2ccccc2N1: 105%
Nc1nccc(-c2c(-c3ccc(F)cc3)ncn2C2CCNCC2)n1: 79.4%
N#CC(=C(N)Sc1ccc(N)cc1)c1ccccc1C(F)(F)F: 103%
CC(=O)c1ccc(N2CCOCC2)cc1O: 97.9%
Cc1cc(Nc2nc(-c3ccccc3)nc3ccccc23)n[nH]1: 87.3%
Cc1cncc2cccc(S(=O)(=O)N3CCCN(C(=O)CN)C[C@@H]3C)c12: 91.3%
CSc1nc(-c2ccnc(N[C@@H](C)c3ccccc3)c2)c(-c2ccc(F)cc2)[nH]1 (racemic): 101%
CC[n+]1c(/C=C/N(C)c2ccccc2)n(-c2ccccc2)c2ccc(-c3nc4ccccc4s3)cc21: 118%
O=C1NC(=O)C(c2c[nH]c3ccccc23)=C1c1c[nH]c2ccccc12: 42.9%
COc1cc(Nc2c(C#N)cnc3cc(OCCCN4CCN(C)CC4)c(OC)cc23)c(Cl)cc1Cl: 88.4%
Nc1nc(Nc2ccc(S(N)(=O)=O)cc2)nn1C(=O)c1c(F)cccc1F: 90.5%
Oc1ccc(Nc2nc(-c3ccc(Cl)cc3)cs2)cc1: 94.7%
CCc1[nH]c(-c2ccc(OC)cc2)nc1-c1ccncc1: 109%
COc1ccc(S(=O)(=O)N(CCO)c2ccccc2CN(C)CC=Cc2ccc(Cl)cc2)cc1: 102%

Series 3
Species: mouse
Sample: microsomes or S9
Tested at: 2 µM
Time: 0.5 h
Quantity: remaining compound
O=[N+]([O-])c1c(Nc2cc(F)cc(Cl)c2)ccc2nonc12: 11.3%
COC(=O)CNC(=O)C(C)NC(=O)/C=C/c1cc(-n2nc(C)n(C(F)F)c2=O)c(F)cc1Cl (centres unmarked): 24.4%
O=S(=O)(c1cccc2cccnc12)N1CCCC1c1noc(CO)n1 (centres unmarked): 53.9%
COc1ccc2c(c1)OC1c3ccc(O)cc3OCC21 (centres unmarked): 11.9%
Cc1cc(-c2c3ccccc3c(Br)c3sc(C)c(C)c23)cc(C)c1O[C@H](Cc1ccccc1)C(=O)O: > 99%
CCCCN(C)C(=O)CSc1nnc2c3cc(-c4cc(C)ccc4C)nn3ccn12: 80.2%
Nc1cc(C(=O)OCCC2CCOC2=O)cnc1Cl (centres unmarked): 0.0277%
Cc1ccccc1-c1noc(-c2ccc[nH]c2=O)n1: 35.2%
Cc1cc(C#N)cc(NC(=O)C(F)(F)F)c1NC(=O)c1cc(Br)nn1-c1ncccc1Cl: 4.42%
CCCNC(=O)NC(=O)CNC1(C(=O)OC(C)(C)C)CCCC1: 0.524%
COc1ccc(-c2nnc3c4ccccc4c(Cl)nn23)cc1: 19.8%
CCc1nnc(NCCc2cncn2C)c(C#N)c1CC: 73.8%
Cc1nc2c(cc1Br)nc1n2C(C)CC1 (centres unmarked): 94.3%
Cn1nnc(-c2ccc(OCC(=O)Nc3ccc4[nH]ccc4c3)cc2)n1: 72.4%
CC1(C)CC(NC(=O)CCc2nc3ncc(Br)cc3[nH]2)CC(C)(C)N1: 70.7%
Clc1ccc(-c2cn3c4ccccc4n(CCN4CCCCC4)c3n2)cc1Cl: 4.2%

Further values, each from its own experiment
Cc1cc(Nc2nccc(C)n2)cc(-c2cnc([C@@]3(O)CC[C@H](C(=O)O)C(C)(C)C3)s2)c1
inhibition (HTR5A (Homo sapiens, UniProt P47898); ligand displacement; 10 µM): 10%

COc1cccc(NC(=O)c2nc3scc(CN(C)Cc4ccccc4)c3c(=O)[nH]2)c1
Ki (HRH1 (Homo sapiens, UniProt P35367); binding, radioligand binding): 0.019 µM

CCCCN(CCCC)C(=O)CN1C[C@H](c2cc(OC)c3c(c2)OCO3)[C@@H](C(=O)O)[C@@H]1CC(C)(C)CCC
viability (sample G normal colon organoids; CellTiter-Glo; human patient-derived organoids; 0.1 µM, 4 days; baseline: DMSO control): 106%

A few entries again (series 3):
COc1ccc2c(c1)OC1c3ccc(O)cc3OCC21 (centres unmarked): 11.9%
Cc1cc(-c2c3ccccc3c(Br)c3sc(C)c(C)c23)cc(C)c1O[C@H](Cc1ccccc1)C(=O)O: > 99%
CCCCN(C)C(=O)CSc1nnc2c3cc(-c4cc(C)ccc4C)nn3ccn12: 80.2%
